{"data": "Assay results from different studies", "target": "Kappa-type opioid receptor (OPRK1, Homo sapiens, UniProt P41145)", "note": "Lines come from different studies, so protocols differ."}
{"Structure (SMILES)": "CC(C)[C@H]1CC[C@H](N2CC[C@@](C)(c3cccc(O)c3)[C@@H](C)C2)CC1", "assay": "agonist", "quantity": "efficacy", "value": "0%"}
{"Structure (SMILES)": "CC(C)C[C@H](NC(=O)[C@H](Cc1ccc2ccccc2c1)NC(=O)CNC(=O)[C@H](NC(=O)[C@@H](N)Cc1ccc(O)cc1)[C@H](C)O)C(=O)N[C@@H](CO[C@@H]1O[C@H](CO)[C@@H](O)[C@H](O)[C@H]1O)C(N)=O", "assay": "GTPγS binding, agonist, radiometric", "setting": "cell membranes", "quantity": "Emax", "value": "< 10%"}
{"Structure (SMILES)": "NCc1ccc2[nH]c3c(c2c1)CC1(O)C2Cc4ccc(O)c5c4C1(CCN2CC1CC1)C3O5 (stereo not drawn)", "assay": "[3H]diprenorphine binding", "how to read": "relative to: Ki µ over Ki κ", "quantity": "selectivity ratio", "value": "~6"}
{"Structure (SMILES)": "COC(=O)C1C(OC(c2ccc(Cl)cc2)c2ccc(Cl)cc2)CC2CCC1N2C (single isomer, unassigned)", "assay": "binding", "setting": "10000 nM, together with: [3H]diprenorphine", "quantity": "displacement", "value": "inactive"}
{"Structure (SMILES)": "Cc1cc(O)cc(C)c1CC(N)C(=O)NC1CCNc2c(Cc3ccccc3)cccc21 (stereo not drawn)", "assay": "agonist", "test system": "CHO cell membranes", "setting": "10 µM", "how to read": "relative to: U69593", "quantity": "maximal stimulation", "value": "inactive"}
{"Structure (SMILES)": "CCCCC(=N)NCc1ccc2[nH]c3c(c2c1)CC1(O)C2Cc4ccc(O)c5c4C1(CCN2CC1CC1)C3O5 (stereo not drawn)", "assay": "binding, [3H]-diprenorphine competitive binding", "test system": "CHO cells expressing κ opioid receptor", "how to read": "relative to: Ki δ over Ki κ", "quantity": "selectivity ratio", "value": "~5 fold"}
{"Structure (SMILES)": "Cc1cc(O)cc(C)c1C[C@H](N)C(=O)N[C@H](C)C(=O)NCC(=O)N[C@@H](Cc1ccccc1)C(=O)NNC(=O)[C@H](Cc1ccccc1)NC(=O)CNC(=O)[C@@H](C)NC(=O)[C@@H](N)Cc1c(C)cc(O)cc1C", "assay": "GTPγS binding, agonist, radiometric", "setting": "cell membranes", "quantity": "Emax", "value": "~50%"}
{"Structure (SMILES)": "CCOC(=O)C1C(OC(c2ccc(Cl)cc2)c2ccc(Cl)cc2)CC2CCC1N2C (single isomer, unassigned)", "assay": "binding", "setting": "10000 nM, together with: [3H]diprenorphine", "quantity": "displacement", "value": "inactive"}
{"Structure (SMILES)": "CC(C)C[C@H](NC(=O)[C@H](Cc1cccc2ccccc12)NC(=O)CNC(=O)[C@H](NC(=O)[C@@H](N)Cc1ccc(O)cc1)[C@H](C)O)C(=O)N[C@@H](CO)C(N)=O", "assay": "GTPγS binding, agonist, radiometric", "setting": "cell membranes", "quantity": "Emax", "value": "75%"}
{"note": "A few entries again:"}
{"Structure (SMILES)": "CC(C)[C@H]1CC[C@H](N2CC[C@@](C)(c3cccc(O)c3)[C@@H](C)C2)CC1", "assay": "agonist", "quantity": "efficacy", "value": "0%"}
